Experimental data pooled from the literature.
Parts stem from different laboratories: compare values within a part only. Changes are numbered by the printed parent chain.

Sample 1
Target: Calcium/calmodulin-dependent protein kinase type 1G (CAMK1G, Homo sapiens, UniProt Q96NX5)
UniProt Q96NX5, sequence (whole entry, looked up): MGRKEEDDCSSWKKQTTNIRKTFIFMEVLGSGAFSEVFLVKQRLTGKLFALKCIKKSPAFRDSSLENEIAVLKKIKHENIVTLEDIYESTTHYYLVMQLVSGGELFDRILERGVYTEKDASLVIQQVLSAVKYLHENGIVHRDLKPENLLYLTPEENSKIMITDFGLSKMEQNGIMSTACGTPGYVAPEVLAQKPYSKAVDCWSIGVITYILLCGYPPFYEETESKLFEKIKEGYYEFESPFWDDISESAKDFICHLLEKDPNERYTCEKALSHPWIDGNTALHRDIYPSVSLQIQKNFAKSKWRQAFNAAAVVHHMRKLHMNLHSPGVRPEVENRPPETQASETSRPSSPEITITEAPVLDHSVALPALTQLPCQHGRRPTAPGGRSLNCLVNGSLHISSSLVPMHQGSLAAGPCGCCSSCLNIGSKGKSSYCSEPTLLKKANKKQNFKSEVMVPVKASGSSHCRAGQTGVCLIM
Read-out: enzyme activity
Action: inhibitor
Concentration: 0.5 µM
Reference: control
Compound | remaining activity [%]
CO[C@H]1C[C@@H]2CC[C@@H](C)[C@@](O)(O2)C(=O)C(=O)N2CCCC[C@H]2C(=O)O[C@H]([C@H](C)C[C@@H]2CC[C@@H](O)[C@H](OC)C2)CC(=O)[C@H](C)/C=C(\C)[C@@H](O)[C@@H](OC)C(=O)[C@H](C)C[C@H](C)/C=C/C=C/C=C/1C | 93
COc1ccc(OC)c2c(=S)c3ccccc3[nH]c12 | 99.5
COc1cc2ncnc(Nc3ccc(F)c(Cl)c3)c2cc1OCCCN1CCOCC1 | 103
CCOC(=O)c1c(C)[nH]c(/C=C2\C(=O)Nc3ccccc32)c1C | 98.2
CN(C)c1ccc(C=C2C(=O)Nc3ccccc32)cc1 | 99.9
O=C1NC(=O)C(c2cn(CCCO)c3ncccc23)=C1c1cnccn1 | 101
Cn1sc(=O)n(Cc2ccccc2)c1=O | 117
CC(C)[C@H](CO)Nc1nc(Nc2cc(N)cc(Cl)c2)c2ncn(C(C)C)c2n1 | 105
O=C(Nc1cccc(Nc2cc(Nc3cccc(C(F)(F)F)c3)ncn2)c1)C1CC1 | 96.9
Nc1ncnc2n[nH]c(Nc3ccc(F)cc3)c12 | 97.2
Cc1ccc(NC(=O)c2ccc(CN3CCN(C)CC3)cc2)cc1Nc1nc(-c2cccnc2)cs1 | 106
Cc1cccc(-c2[nH]c(C(C)(C)C)nc2-c2ccc3c(c2)OCO3)n1 | 98.7
Oc1ccc(-c2nc(-c3ccncc3)c(-c3ccc(F)cc3)[nH]2)cc1 | 98.5
COc1cc2ncnc(Nc3ccc(Oc4ccccc4)cc3)c2cc1OC | 101

Sample 2
Target: Sigma intracellular receptor 2 (TMEM97, Homo sapiens, UniProt Q5BJF2)
UniProt Q5BJF2, sequence (whole entry, looked up): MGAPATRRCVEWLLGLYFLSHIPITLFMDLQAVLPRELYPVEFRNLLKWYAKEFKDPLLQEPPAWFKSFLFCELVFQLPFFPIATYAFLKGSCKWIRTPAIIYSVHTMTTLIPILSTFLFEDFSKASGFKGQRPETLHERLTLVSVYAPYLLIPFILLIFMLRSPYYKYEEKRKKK
Read-out: binding
Method: radioligand binding
Concentration: 10 µM
Structure (SMILES) | inhibition [%]
Nc1c(C(=O)NCc2ccc(C(=O)NCCCC3CCCCC3)cc2)cnn1-c1ccccc1 | 45.3
CN(C)C(=O)Cn1cc(-c2nc([C@@](C)(c3ccc(-c4cnc(N)nc4)cc3)C3CC3)no2)cn1 | 10.1
O=C(Nc1cccnn1)N1CC(CC=Cc2cncc(Oc3ccc(C(F)(F)F)cn3)n2)C1 | 69
CN1C(=O)[C@@H](N2CCc3cn(Cc4ccccc4)nc3C2=O)COc2ccccc21 | 27
CS(=O)(=O)NCC[C@H](NC(=O)c1cncc2c1cnn2-c1ccc(F)cc1)c1ccnc(S(C)(=O)=O)c1 | -1.85
Cc1c[nH]c2nccc(Oc3c(F)cc(Nc4cc(Cl)nc(N)n4)cc3F)c12 | 31.9
COc1cc(-c2cn(C3CCc4ccccc4N(CC(F)(F)F)C3=O)nn2)ccc1-n1ccc(C)n1 (centres unmarked) | 72
CN1CCN(C(=O)C(C)(C)c2ccc(C(=O)Nc3cn4cc(-c5ccncc5)ccc4n3)cc2)CC1 | 13.4
CCOCCn1cc(C(=O)Nc2ccc(-n3nc(-c4cccnc4)cc3C(F)(F)F)cn2)ccc1=O | -2.98
O=C(NC[C@@H]1[C@H]2CN(C(=O)OCc3cc(C(F)(F)F)cc(C(F)(F)F)c3)C[C@@H]12)c1ccc2[nH]nnc2c1 | 44.9
CC(C)CC(=O)N1CCc2nc(-c3ccc(Br)cc3)nc(N(C)Cc3ccccc3)c2C1 | 78.8
O=C(O)c1cc(-c2ccc(C3CCNCC3)cc2)c2ccc(-c3ccc(C(F)(F)F)cc3)cc2c1 | 95.6
Cc1nccc(COC(=O)N2C[C@@H]3[C@@H](CNC(=O)c4ccc5[nH]nnc5c4)[C@@H]3C2)n1 | -2.9
CC1=C(C#N)[C@@H](c2ccc3[nH]nc(C)c3c2)C(C#N)=C(c2ccc(Cl)cc2)N1 | 23.4
O=C(Nc1cnc(Oc2ccc(F)cc2)nc1)N1CCc2ncccc2[C@@H]1c1ccc(F)cc1 | 53.2
CC(=O)c1c(NS(C)(=O)=O)c2cc(-c3ccc(Cl)cc3)c(-c3ccc(Cl)cc3Cl)nc2n(C)c1=O | 17.6
Cc1cc(C)c(-n2ccn3nc(-c4cccnc4)cc23)cc1NC(=O)c1cc(C#N)cc(S(F)(F)(F)(F)F)c1 | 64.4
C[C@H](NC(=O)c1cnc2n1[C@](C)(Cc1ccc(C#N)cc1)C(=O)N2c1cc(Cl)c(F)c(Cl)c1)C(=O)NC1(c2ccccn2)CC1 | 25.9
CC(=O)N1CCC(c2ccc(C(=O)NC(=N)N)cc2C(F)(F)F)CC1 | -6.34
CC(=O)Nc1c(F)cc(C(=O)N[C@H]2CC[C@H](O)CC2)cc1O[C@@H](C)c1ccccc1 | -0.94
COc1cccc(CNC(=O)c2nc3scc(COCc4ccc(C(=O)O)cc4)c3c(=O)[nH]2)c1 | 17.7
Cc1nc(Cc2cccc(C(F)(F)F)c2)sc1-c1ccc(C(N)=O)nc1 | -8.52
O=C1c2ccc(Nc3ccc(F)cc3F)cc2CCc2ccc(OC[C@H](O)CO)cc21 | 53.1

Sample 3
Target: CCNB3, cyclin fold, Cln2 fusion (human)
Method: yeast growth competition, sequencing
Matrix: yeast
Notes: weak parent motif
Reference: not given
Direction: higher = stronger binding
Starting sequence: CDKN1A docking peptide (human); SKACRRLFGPVDS
Substitution | normalised enrichment score
SKACRRLFGPVES [D12E] | 0.0899
SKACRRLFGPRDS [V11R] | 0.824
SKACRRLFIPVDS [G9I] | 0.616
SKACRRLFGGVDS [P10G] | 0.475
SKACRRLFGPVHS [D12H] | 0.484
SKACRRLFGPVTS [D12T] | 0.481
SKACRNLFGPVDS [R6N] | 0.103
SKDCRRLFGPVDS [A3D] | 0.0675

Sample 4
Target: Prothrombin, mature alpha-thrombin (F2, Homo sapiens, UniProt P00734)
Method: aptamer microarray, sandwich
Form: DNA with 2'F-ANA
Matrix: in vitro
Concentration: 200 nM
Notes: whole 15-mer aptamer, many near background
With: Cy3 exosite-II aptamer, 400 nM
Direction: higher = stronger binding
Oligonucleotide: GGTTGGTGTGGTTGG
Modification | mean fluorescence intensity
2'F-ANA at 1 3 4 5 13 15 | 48.8 a.u.
2'F-ANA at 1 2 4 5 9 10 14 15 | 47 a.u.
2'F-ANA at 1 3 4 7 9 14 15 | 62.1 a.u.
2'F-ANA at 2 4 6 8 12 13 14 15 | 120 a.u.
2'F-ANA at 2 3 4 5 6 7 10 11 12 13 14 15 | 49 a.u.
2'F-ANA at 1 2 3 4 6 8 10 12 13 14 | 49 a.u.
2'F-ANA at 3 5 13 14 15 | 56.4 a.u.
2'F-ANA at 1 2 4 5 7 9 12 14 | 45.2 a.u.

Some of these lines once more (sample 2):
Structure (SMILES) | inhibition [%]
O=C(Nc1cnc(Oc2ccc(F)cc2)nc1)N1CCc2ncccc2[C@@H]1c1ccc(F)cc1 | 53.2
CC(=O)c1c(NS(C)(=O)=O)c2cc(-c3ccc(Cl)cc3)c(-c3ccc(Cl)cc3Cl)nc2n(C)c1=O | 17.6
Cc1cc(C)c(-n2ccn3nc(-c4cccnc4)cc23)cc1NC(=O)c1cc(C#N)cc(S(F)(F)(F)(F)F)c1 | 64.4
C[C@H](NC(=O)c1cnc2n1[C@](C)(Cc1ccc(C#N)cc1)C(=O)N2c1cc(Cl)c(F)c(Cl)c1)C(=O)NC1(c2ccccn2)CC1 | 25.9
CC(=O)N1CCC(c2ccc(C(=O)NC(=N)N)cc2C(F)(F)F)CC1 | -6.34
